Measurements from different studies.
A part holds a random share of what one study measured.

Study 1 — method: protein binding microarray; molecule type: double-stranded DNA, one strand shown; sample: in vitro; concentration: not given; baseline: not given; direction: higher = stronger binding
Target: Histone acetyltransferase KAT6A, winged helix 2, GST fusion (KAT6A, Homo sapiens, UniProt Q92794, residues 85-181)
Notes: 8-mer, flanks averaged, mean of 2 arrays, mostly near background
Residues (chain): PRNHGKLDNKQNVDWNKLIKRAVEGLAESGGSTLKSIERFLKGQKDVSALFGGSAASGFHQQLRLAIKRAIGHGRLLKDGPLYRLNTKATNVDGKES
Strand	E-score
GTAGTGAA	-0.0532
CCAGCTCG	-0.0601
ATATGAGA	0.0137
AAGCGTTG	-0.024
ACCAATTG	-0.0209
ACTCGCCT	0.0888

Study 2 — method: protein-binding microarray; molecule type: double-stranded DNA, one strand shown; sample: in vitro; concentration: not given; direction: higher = stronger binding
Target: Protein C-ets-1 (ETS1, Homo sapiens, UniProt P14921, residues 1-441, full length assumed)
Notes: k-mer, scored over probes, only values ≥0.25
Residues (chain): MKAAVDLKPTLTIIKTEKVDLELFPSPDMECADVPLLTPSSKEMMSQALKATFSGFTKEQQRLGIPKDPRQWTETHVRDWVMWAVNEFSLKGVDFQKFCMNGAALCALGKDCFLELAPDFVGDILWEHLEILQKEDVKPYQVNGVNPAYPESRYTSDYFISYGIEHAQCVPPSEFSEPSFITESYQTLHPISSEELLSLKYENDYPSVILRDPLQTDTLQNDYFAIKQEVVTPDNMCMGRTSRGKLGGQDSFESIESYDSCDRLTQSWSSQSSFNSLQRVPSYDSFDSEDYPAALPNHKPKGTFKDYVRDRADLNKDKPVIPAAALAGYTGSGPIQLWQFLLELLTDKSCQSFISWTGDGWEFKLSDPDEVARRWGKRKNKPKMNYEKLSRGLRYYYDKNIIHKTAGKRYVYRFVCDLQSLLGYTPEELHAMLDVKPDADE
Strand	E-score
ACCACCGG	0.264
TCGCGGAA	0.334
CTGCGGAA	0.363
GAAACTTC	0.336

Study 3 — method: aptamer microarray, sandwich; molecule type: DNA with 2'F-ANA; sample: in vitro; concentration: 200 nM; together with: Cy3 exosite-II aptamer, 400 nM; direction: higher = stronger binding; strand: GGTTGGTGTGGTTGG
Target: Prothrombin, mature alpha-thrombin (F2, Homo sapiens, UniProt P00734)
Notes: whole 15-mer aptamer, many near background
Modification	mean fluorescence intensity [a.u.]
2'F-ANA at 3 4 9 13	483
2'F-ANA at 2 4 5 6 10 11 12 15	60.5
2'F-ANA at 4 5 6 8 9 10 11 12	67.1
2'F-ANA at 1 3 4 5 7 8 9 12 13 14	50.5
2'F-ANA at 3 6 7 12 13	1190
2'F-ANA at 4 5 6 7 9 12 14	45.4

Further values, each from its own experiment
Substance	target	assay	system	conditions	how to read	measurement	result
PhoQ, residues 284 288 289 292 302 303 TSTLRA	PhoP, residues 12 14 15 18 19 LHSVW (Escherichia coli, UniProt P23836)	Sort-seq, item: YFP reporter	E. coli	PhoQ-PhoP variant library, together with: 10 µM Mg2+	baseline: high Mg2+ state, higher = stronger signaling	fold induction	0.677

Some of these lines once more (study 3):
Modification	mean fluorescence intensity [a.u.]
2'F-ANA at 1 3 4 5 7 8 9 12 13 14	50.5
